Results of several laboratories.
A part holds a random share of what one study measured. Substitutions count along the parent as printed.

Series 1 — method: DHFR PCA, deep sequencing; matrix: yeast; together with: (+)-ABA 0.39 µM; reference: wild-type fitted maximum; reading: higher = stronger binding
Target: ABI1, truncated, D143A, DHFR fusion (Arabidopsis thaliana)
Setting: methotrexate growth selection, single substitutions
Starting sequence: PYL1, truncated, DHFR fusion (Arabidopsis thaliana); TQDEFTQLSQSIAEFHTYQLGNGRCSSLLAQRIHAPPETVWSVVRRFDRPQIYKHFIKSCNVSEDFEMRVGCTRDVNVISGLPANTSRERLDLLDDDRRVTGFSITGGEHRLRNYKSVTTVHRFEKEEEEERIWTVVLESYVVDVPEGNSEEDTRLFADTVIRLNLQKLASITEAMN; partner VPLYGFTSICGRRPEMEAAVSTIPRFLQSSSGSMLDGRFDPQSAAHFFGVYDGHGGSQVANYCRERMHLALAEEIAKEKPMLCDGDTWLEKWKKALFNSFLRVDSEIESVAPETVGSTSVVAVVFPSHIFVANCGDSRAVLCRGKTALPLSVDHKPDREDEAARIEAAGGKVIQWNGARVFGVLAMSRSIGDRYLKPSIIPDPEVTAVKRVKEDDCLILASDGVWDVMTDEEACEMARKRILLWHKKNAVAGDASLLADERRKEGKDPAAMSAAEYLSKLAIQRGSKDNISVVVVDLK
For `F15W`, “relative binding score” read 45.1%.
Under “relative binding score”, `P37D` is recorded as 6.13%.
`G71H`: “relative binding score” -3.13%.
`P37M` — result for “relative binding score”: -4.02%.
`N77H` — result for “relative binding score”: 70.2%.
`E174H`: “relative binding score” 4.91%.
Under “relative binding score”, `D95S` is recorded as 4.44%.
Under “relative binding score”, `E127R` is recorded as 46.4%.

Series 2 — method: RNA Bind-n-Seq; form: RNA; matrix: in vitro; concentration: 100 nM; reference: input RNA pool; reading: higher = stronger binding
Target: RING finger protein unkempt homolog, zinc fingers 1-6, SBP tag (UNK, Homo sapiens, UniProt Q9C0B0, residues 30-357)
Sequence of UniProt Q9C0B0 (30-357, looked up): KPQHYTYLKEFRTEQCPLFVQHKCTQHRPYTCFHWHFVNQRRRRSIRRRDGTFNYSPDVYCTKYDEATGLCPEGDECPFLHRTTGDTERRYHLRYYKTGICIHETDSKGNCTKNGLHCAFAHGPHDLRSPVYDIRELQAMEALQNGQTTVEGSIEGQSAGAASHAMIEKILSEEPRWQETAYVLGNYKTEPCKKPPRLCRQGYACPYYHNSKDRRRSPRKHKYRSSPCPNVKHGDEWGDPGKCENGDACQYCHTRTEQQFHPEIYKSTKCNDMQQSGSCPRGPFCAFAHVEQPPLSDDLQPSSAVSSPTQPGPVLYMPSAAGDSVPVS
Setting: RNA with constant flanks, vertebrate orthologous sites, ends assumed
Shared flanks, not repeated: GGGAGUUCUACAGUCCGACGAUC … CAACAGAGGAUUGAGCAUCA
`CCAUUACAGUAAGUAGAGUGGGUUCUCCCCUCCACUUCUCCCAAGAAGAAAAUGCCCAAAUAGAUUGUUUAUGCAUCUGAUUAUAUUGUUCAGUUUUUGUUUCCUAUUAUUUUUACAUAU` gave a bound/input enrichment of 0.892 ratio.
With `GUUGUGACCCAUUUAACAUACACAAAAAGCUAGCCAAAAAAAAUUUGCAUGUAAUUGACUUAGAUGAUGCCACUUUUCUGAGUGCAAAAUUUGGAAGACAGCUUGUACCUGGAUGGAAGC` the bound/input enrichment was 1.17 ratio.
`CUUAAUUAGAGGGCAAUAUAUGUUUCAUAAAGAAGAGUCUUUAUAAUUUUGUUUGUCAGAUAGUAUUUUGGAAUUUGUAUAAUGAGGAUGUUUAGAAGCCAUGUAAGUGGCUUUUUUUAA` has a bound/input enrichment of 0.466 ratio.
With `CCAGCCUUCCGUGUAGGGUCGGCCUUAAAUCUAUAGGAUUUAUGGCAAAUGUAUUAUAUAUAAUUGCAUUGAGUUUAAUAUUUUUUAUUACCCUGUAAAUGAAGAUGGCAUCUCCUACAU` the bound/input enrichment was 0.202 ratio.
`CAAUUCAAUGGUCGAGGGUUCAGAACUCAAAAAGGUUCGCUCCAACUCCAGGAUUUACCAUAGGUAUUUUUUACUGGAUGCUGACAUGCAGAGCCUGAGGUGGGAACCAUCUAAGAAGGA` has a bound/input enrichment of 0.154 ratio.
For `GAUACUGAAUAGUAUUAAACAUUUUCGUCUUCCUUUACCUUUUAUCCCCUACCUAAUAUCUAGUCUACUUUUUUAAAUUUCAAACUUCACUGCUCUUUGAAUUGAUAAUUCCAAUUUUCA`, the bound/input enrichment was 7.26 ratio.
`UAUUAGUGUCAUACCAGCAUAUUAACCUCUCGUCUGUGCACAGCUUCAAAUGUUACCGUCUAGUUAGAUUUUUAUUUAAAAUAUGAAAAACUGCUUUUCCCAAGACGUUUUUUAAAAGAC` gave a bound/input enrichment of 1.54 ratio.
For `AGAAAAUUUUAACCAAGAGUCUGAAGCUAGAAAUACAGGACCAUGGUUAUCUUCCUCACUUAGAAAUAGAUGCACACCCUUGUUCUCUAGAAGGAGGCGAGAAGGAAGAGACGAAUCUUC`, the bound/input enrichment was 1.21 ratio.

Further values, each from its own experiment
P1: PafA, mature enzyme, eGFP fusion (Elizabethkingia meningoseptica, UniProt Q9KJX5); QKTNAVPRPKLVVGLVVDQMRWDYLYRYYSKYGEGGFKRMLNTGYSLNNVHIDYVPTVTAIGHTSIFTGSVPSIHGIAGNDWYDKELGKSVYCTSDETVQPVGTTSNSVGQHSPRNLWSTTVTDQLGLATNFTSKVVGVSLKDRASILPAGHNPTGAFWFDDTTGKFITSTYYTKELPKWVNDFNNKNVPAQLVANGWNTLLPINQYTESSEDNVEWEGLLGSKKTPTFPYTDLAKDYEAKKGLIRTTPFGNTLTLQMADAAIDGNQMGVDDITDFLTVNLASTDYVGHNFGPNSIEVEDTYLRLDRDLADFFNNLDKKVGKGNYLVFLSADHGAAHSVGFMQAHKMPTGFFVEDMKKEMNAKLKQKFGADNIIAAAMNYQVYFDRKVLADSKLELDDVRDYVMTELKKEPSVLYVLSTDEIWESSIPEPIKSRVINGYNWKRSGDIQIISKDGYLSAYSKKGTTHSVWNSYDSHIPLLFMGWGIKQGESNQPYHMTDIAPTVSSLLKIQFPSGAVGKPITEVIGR
`P1 K358G` — result for “phosphate dissociation constant”: 587 µM (inorganic phosphate, free oxyanion; microfluidic competitive inhibition; in vitro, cell-free expressed; not given, derived from inhibition constants, unchanged parent 615000 nM; lower = stronger binding).
`QKKAKRRLFTISDSGY` gave a binding score of 1.14 (human cyclin A2; peptide binding, competitive growth sequencing; peptide, Saccharomyces cerevisiae, cyclin A2-Cln2 fusion strain; concentration not given, peptide tiling library; reference: unfused Cln2 strain, direction not given).
